Assay results of several laboratories.
Each numbered part is a random draw from the data of one study; scales do not carry over between parts. Positions count from the first letter of the parent shown.

Series 1
Target: CDC34 UBC core domain (UniProt P49427)
Technique: yeast two-hybrid
Sample: yeast
Setting: mostly zero background
Baseline: not given
Reading: higher = stronger interaction
B1: RNF24 RING domain (UniProt Q9Y225); chain KVKELNLHELCAVCLEDFKPRDELGICPCKHAFHRKCLIKWLEVRKVCPLCNMPVLQLAQLH
B2: Ltn1 RING domain (UniProt Q6A009); chain VDKRFEGVEDCMICFSVIHGFNYSLPKKACRTCKKKFHSACLYKWFTSSNKSTCPLCRETFF
B3: RNF181 RING domain (UniProt Q9P0P0); chain VIRGSQAELKCPVCLLEFEEEETAIEMPCHHLFHSSCILPWLSKTNSCPLCRYELPTDDDTY
B4: TRIM22 RING domain (UniProt Q8IYM9); chain KEVKMSPQEGQKRDVCEHHGKKLQIFCKEDGKVICWVCELSQEHQGHQTFRINEVVKECQEK
B5: DTX1 RING domain (UniProt Q86Y01); chain QKVKNPPDEDCTICMERLVTASGYEGVLRHKGVRPELVGRLGRCGHMYHLLCLVAMYSNGNKDGSLQCPTCKAIYGEKTGTQ
B6: TRIM48 RING domain (UniProt Q8IWZ4); chain ISQVFQRELTCPICMNYFIDPVTIDCGHSFCRPCFYLNWQDIPILTQCFECIKTIQQRNLKT
B7: PRKN RING domain (UniProt O60260); chain LIATNSRNITCITCTDVRSPVLVFQCNSRHVICLDCFHLYCVTRLNDRQFVHDPQLGYSLPCVAGCPNSLIKELHH
B8: RNF135 RING domain (UniProt Q8IUD6); chain PVWLAEDDLGCIICQGLLDWPATLPCGHSFCRHCLEALWGARDARRWACPTCRQGAAQQPHLR
Construct (chain): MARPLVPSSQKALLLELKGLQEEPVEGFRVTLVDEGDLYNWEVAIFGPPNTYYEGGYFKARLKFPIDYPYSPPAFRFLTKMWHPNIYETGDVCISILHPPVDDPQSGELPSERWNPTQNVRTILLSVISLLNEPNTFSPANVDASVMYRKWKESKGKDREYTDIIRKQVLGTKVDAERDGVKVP
Sequence | lacZ reporter activity
B1 (RNF24 RING domain) | 0
B2 (Ltn1 RING domain) | 0
KEQLEKHNDICAICYQDMKSAVITPCSHFFHAGCLKKWLYVQETCPLCHCHLKNSSQLP (RNF145 RING domain (UniProt Q96MT1)) | 0
KLWDINAHITCRLCSGYLIDATTVTECLHTFCRSCLVKYLEENNTCPTCRIVIHQSHPLQ (PCGF3 RING domain (UniProt Q3KNV8)) | 0
B3 (RNF181 RING domain) | 0
QLRRLQEERTCKVCLDRAVSIVFVPCGHLVCAECAPGLQLCPICRAPVRSRVRTF (BIRC7 RING domain (UniProt Q96CA5)) | 0
B4 (TRIM22 RING domain) | 0
ALDRLEKLLRCSRCTNILREPVCLGGCEHIFCSNCVSDCIGTGCPVCYTPAWIQDLKI (BARD1 RING domain (UniProt Q99728)) | 0
KITELNPHLMCVLCGGYFIDATTIIECLHSFCKTCIVRYLETSKYCPICDVQVHKTRPLL (BMI1 RING domain (UniProt P35226)) | 0
B5 (DTX1 RING domain) | 0
NTAPSLTVPECAICLQTCVHPVSLPCKHVFCYLCVKGASWLGKRCALCRQEIPEDFLDK (RNF146 RING domain (UniProt Q9NTX7)) | 0
B6 (TRIM48 RING domain) | 0
B7 (PRKN RING domain) | 0
MDDQGCPRCKTTKYRNPSLKLMVNVCGHTLCESCVDLLFVRGAGNCPECGTPLRKSNFRV (MNAT1 RING domain (UniProt P51948)) | 0
B8 (RNF135 RING domain) | 0

Series 2
Target: RNA binding protein fox-1 homolog 2, RRM domain, GST-SBP tag (RBFOX2, Homo sapiens, UniProt O43251-10, residues 100-194)
Technique: RNA Bind-n-Seq
Form: RNA
Sample: in vitro
Concentration: 365 nM
Setting: natural RNA segment, single round, ends assumed
Baseline: no-protein control
Reading: higher = stronger binding
All sequences stand within: GGGAGUUCUACAGUCCGACGAUC … UGGAAUUCUCGGGUGCCAA
Target sequence (chain): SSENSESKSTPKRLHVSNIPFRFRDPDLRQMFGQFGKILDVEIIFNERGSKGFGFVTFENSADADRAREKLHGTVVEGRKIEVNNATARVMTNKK
Sequence | RBNS enrichment (R)
GGGUUUCCAGCCAGGCCUCGGGGUCAUCUUUUCACCAGGAGCAAACCCAAGUCUUAGUUGCUACAAGAAAAUCCCCUGGAAGUACUGGGGGCCAGGUUCCCCAGACAGCA | 1.92
ACCGUCCGCUUUUCCUGAGUUCUCCCUCCCAAUUGGCUCCAGCUUCCUGGGGGCGUGGCCAAGCCCUCCUCUUCCCAGAAUUGGCCCGGGGCCUUCAAUUUACGUUCUUU | 0.394
UCAAAUAAACCAAUGAAAAAGCUUUGCCGAUGAUAAUAAAAGAUGCUCACACUUUCAUAGCGCUUGCUACGUGACAAGUACCGCUGUAAAUAAAUGCCUCAUGAAAACCA | 0.58
GCUGACAAGAUGAAUGGGCACUGCCUGCCCUUCUAGUGAAAAGGCUUGGCUAUGGCCCUGUGUGACUCCAGGUCCCAGGAACCUUGCCUUCGUCAUCUGUGGAUCCAUCC | 0.224
GUGUUGUGACACGGGACAACACAUGCCUCUGCAAGUGUGUGUGCCGUGGAUAGCCCCUUGGCUGCUCUCCUGCAGAGAGACAUCGGACAGACCUUAAUUCUUACUCACUG | 0.221
CAAAAGCACUAUAUGGACUGGUAAUGGUUACAGGUUCAGAGAUUACCCAGUGAGGCCUUAUUCCUCCCUUCCCCCCAAAACUGACACCUUUGUUAGCCACCUCCCCACCC | 0.763
AGGAUCCUACCUAAGGGGCACAACUAGUAAGGGAGUAGAGCUGAGAUUGGCUCCAGAGUUCUUGUUUUCAGCCACCAUUUUAUGCUGCCUCUCCAGUGAUUUUUUUUCCC | 0.33
UCUGCCUGGGCAAGAGUGUGGAGGUGCCGAGGUGUCUUCAUUCUCUCGCACAUUUCCACAGCACCUGCUAAGUUUGUAUUUAAUGGUUUUUGUUUUUGUUUUUGUUUGUU | 4.34
CUUCUGAGUCUCUCCAGCGACCUGGGGCCCCUGAGGGCCCGAGGAGCUGAUAAAUAAGGGCUGAGGCAAGUGACUCCUUAGAUCAGCACUGACUGAACGAAAGCCAGGCA | 0.26
AAAAAUCAUGAUAUUUAAAAAUGGUCAAAUAUUUGAGGCAAAAAAAAAAAAAAAAAGUGUCUCCAGGAGGCUGUCCAGCCUCGUGGCUCCAUUUCAACAUCUCCCCCCAG | 0.315
CCUAGGUCAGCGUGCAGAGCAGUGAUGCUGGAGGACACACCAUGGGGUGAAGCCAUCCCAAGGCUGACAGCUCAGUCUUCACCUUGCCUCUGGCCUUGUAUUUCACACCC | 0.22
GACAGAUGGUCCUUAACUACUCAAUGACAGAGGCAGUUACUGUGAGAGACUUCUAGGAAUCUUUUUCUUCUCAUAGCGAAGUCAAAGCUCUCUCUGAAUGUACUGUGUGA | 0.62

Series 3
Target: CCNB2, cyclin fold, Cln2 fusion (human)
Technique: yeast growth competition, sequencing
Sample: yeast
Setting: weak parent motif
Baseline: not given
Reading: higher = stronger binding
Starting sequence: SAMHD1 docking peptide (human); ASKSRVQLFKDDP; partner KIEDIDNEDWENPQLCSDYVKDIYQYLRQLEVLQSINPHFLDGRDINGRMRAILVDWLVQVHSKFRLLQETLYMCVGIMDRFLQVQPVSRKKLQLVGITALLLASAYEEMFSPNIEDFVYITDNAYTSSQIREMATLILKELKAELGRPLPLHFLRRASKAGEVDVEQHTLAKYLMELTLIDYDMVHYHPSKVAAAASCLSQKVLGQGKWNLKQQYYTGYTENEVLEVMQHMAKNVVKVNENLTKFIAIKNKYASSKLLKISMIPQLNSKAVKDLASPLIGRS
Variant | normalised enrichment score
ASKSRVCLFKDDP [Q7C] | 0.104
ASKSRVQLFKYDP [D11Y] | 0.414
ASKSRVQLFLDDP [K10L] | -0.142
ASKSRVQLFKDAP [D12A] | 0.0177
ASKSRVKLFKDDP [Q7K] | 0.334
AAKSRVQLFKDDP [S2A] | 0.742
ASRSRVQLFKDDP [K3R] | 0.486
ASKSRMQLFKDDP [V6M] | 0.6
AVKSRVQLFKDDP [S2V] | 0.549
ASKSRVQLFFDDP [K10F] | -0.372
ASASRVQLFKDDP [K3A] | 0.165
ASKSAVQLFKDDP [R5A] | -0.000611
ASKWRVQLFKDDP [S4W] | 0.0359
ASHSRVQLFKDDP [K3H] | 0.437
ASKSRCQLFKDDP [V6C] | -0.0743
ASKSRVQLFSDDP [K10S] | 0.548
ASKSRVQMFKDDP [L8M] | 0.194
ASKSRVQLFKFDP [D11F] | 0.227
ASKSRVELFKDDP [Q7E] | -0.269
ASKSRVQLYKDDP [F9Y] | 0.33
ASKSRVQLFPDDP [K10P] | 0.0324
ASKSRVQLRKDDP [F9R] | 0.205
ASKSRVRLFKDDP [Q7R] | 0.227
ASKSEVQLFKDDP [R5E] | -0.31
AEKSRVQLFKDDP [S2E] | 0.411

Series 4
Target: Interferon regulatory factor 5, full length, phosphomimetic (IRF5, Homo sapiens, UniProt Q13568-2, residues 1-514, S451D/S453D/S456D/S462D)
Technique: protein-binding microarray
Form: double-stranded DNA, one strand shown
Sample: in vitro
Concentration: 940 nM top
Setting: 60-bp whole probe
With: salmon DNA 0.4 mg/ml
Baseline: random background probes
Reading: higher = stronger binding
All sequences stand within: GCCTAGCAC … GTCTTGATTCGCTTGACGCTGCTG
Sequence | fitted relative affinity [z-score]
GACGATTTCAGTCTCGCGACGTGCTAG | 0.669
TTAGGACTGGGTATCGGCTAGTGCTAG | 0.845
GACGATCTCAGTTTCGAGAAGTGCTAG | 3.62
GACGCTATCCTTATCCTGACGTGCTAG | 0.408
TTACAACTGAGTCTCGATTAGTGCTAG | 3.25
GACGGTATCGGACTGGGGTCGTGCTAG | 3.43
TTAGAACCGGGGTATCGATTAGTGCTA | 3.1
GACCGTATCGACTATCGGGACGTGCTA | 2.53
TACGGTTTCGGACTGGGGACGTGCTAG | 5.68
GACGGTTTCGACATTCGGGACGTGCTA | 6.57
TAAGGTTTCCAATCAGCCCCGTGCTAG | -0.00582
TCATTTTTTTCATTATTACTGTGCTAG | 1.99
TTAGATTCCGGTTTCGATTAGTGCTAG | 7.87
CTGGAGGTTGGGCAAGGCCCGTGCTAG | -0.765
GACGATATCAGTATCGTGACGTGCTAG | 0.27
TTAGGTTTCGGGTATCGCTTAGTGCTA | 10.9

Excerpt of the above (series 3):
Variant | normalised enrichment score
ASKSRVQLFLDDP [K10L] | -0.142
ASKSRVRLFKDDP [Q7R] | 0.227
ASRSRVQLFKDDP [K3R] | 0.486
ASASRVQLFKDDP [K3A] | 0.165
ASKSRVQMFKDDP [L8M] | 0.194
ASKSRVQLFKFDP [D11F] | 0.227
ASKSRVQLYKDDP [F9Y] | 0.33
ASKSRVQLFKYDP [D11Y] | 0.414
ASKSRCQLFKDDP [V6C] | -0.0743
ASKSRMQLFKDDP [V6M] | 0.6
